Experimental data gathered from unrelated publications.
Compare with care: the assays were run in different laboratories.
B1: human semenogelin-1; sequence looked up; chain QKGGSKGRLPSEFSQFPHGQKGQHYSGQKGKQQTESKGSFSIQYTYHVDANDHDQSRKSQQYDLNALHKTTKSQRHLGGSQQLLHNKQEGRDHDKSKGHFHRVVIHHKGGKAHRGTQNPSQDQGNSPSGKGISSQYSNTEERLWVHGLSKEQTSVSGAQKGRKQGGSQSSYVLQTEELVANKQQRETKNSHQNKGHYQNVVEVREEHSSKVQTSLCPAHQDKLQHGSKDIFSTQDELLVYNKNQHQTKNLNQDQQHGRKANKISYQSSSTEERRLHYGENGVQKDVSQSSIYSQTEEKAQGKSQKQITIPSQEQEHSQKANKISYQSSSTEERRLHYGENGVQKDVSQRSIYSQTEKLVAGKSQIQAPNPKQEPWHGENAKGESGQSTNREQDLLSHEQKGRHQHGSHGGLDIVIIEQEDDSDRHLAQHLNNDRNPLFT
B2: human MSRB3; sequence looked up; chain GSCRDKKNCKVVFSQQELRKRLTPLQYHVTQEKGTESAFEGEYTHHKDPGIYKCVVCGTPLFKSETKFDSGSGWPSFHDVINSEAITFTDDFSYGMHRVETSCSQCGAHLGHIFDDGPRPTGKRYCINSAALSFTPADSSGTAEGGSGVASPAQADKAEL

Molecule	tested on	test	system	conditions	how to read	measurement	result
B1 (human semenogelin-1)	PP6C (human)	co-immunoprecipitation, IP-MS	CYB5R4 knockout cells	concentration not given	reference: CYB5R4 knockout over parental	log2 fold change	4.37
colistin	Pseudomonas aeruginosa	broth microdilution	clinical isolate RKI-No_254/15	–	–	MIC	1 µg/mL
colistin	Pseudomonas aeruginosa	–	ATCC 27853	–	–	MIC	0.25 µg/mL
B2 (human MSRB3)	CYB5R4 knockout human cells	PP6 interaction, 3xFLAG-PP6C IP-MS	–	concentration not given	reference: CYB5R4 KO over parental	log2 fold change	-1.68
gentamicin	Klebsiella pneumoniae	broth microdilution	ATCC 43816 wild type, cation-adjusted MHB	–	–	MIC	< 0.5 µg/mL
colistin	Pseudomonas aeruginosa	–	PER-producing clinical isolate R16-49	–	–	MIC	0.5 µg/mL
gentamicin sulfate	Staphylococcus aureus	–	ATCC 43300, resistant	18 h, 37 °C, LED light 10 min, 1.57 mW	–	MIC	128 µM
GCCATGCTTT (PNA, CPP-conjugated)	Salmonella enterica serovar Typhimurium	–	peptide, SL1344	18 h	–	MIC	10 µM
colistin	Staphylococcus aureus	–	MRSA 109, RPMI with 10% FBS	18 to 24 h, 37 °C	–	MIC	18.5 µM
DAPT	Bacillus subtilis	–	ATCC 6633	–	–	MIC	0.7 µg/mL
benzalkonium chloride	Staphylococcus aureus	–	USA300 CA-MRSA	tested up to 1 µM	–	MIC	4 µM
